Results of several laboratories.
± marks the error that the study gave.
Chain of UniProt Q9UJZ1 (whole entry, looked up): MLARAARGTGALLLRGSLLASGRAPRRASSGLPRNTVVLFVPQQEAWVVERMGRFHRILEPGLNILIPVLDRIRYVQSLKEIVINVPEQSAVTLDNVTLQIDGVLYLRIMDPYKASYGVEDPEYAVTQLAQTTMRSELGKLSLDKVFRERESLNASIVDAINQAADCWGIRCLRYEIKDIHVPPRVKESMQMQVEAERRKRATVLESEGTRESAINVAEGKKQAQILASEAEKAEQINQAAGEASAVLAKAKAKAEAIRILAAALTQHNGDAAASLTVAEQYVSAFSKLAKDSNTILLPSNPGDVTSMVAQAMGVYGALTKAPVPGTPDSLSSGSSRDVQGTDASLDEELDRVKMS
Chain of UniProt P21266 (whole entry, looked up): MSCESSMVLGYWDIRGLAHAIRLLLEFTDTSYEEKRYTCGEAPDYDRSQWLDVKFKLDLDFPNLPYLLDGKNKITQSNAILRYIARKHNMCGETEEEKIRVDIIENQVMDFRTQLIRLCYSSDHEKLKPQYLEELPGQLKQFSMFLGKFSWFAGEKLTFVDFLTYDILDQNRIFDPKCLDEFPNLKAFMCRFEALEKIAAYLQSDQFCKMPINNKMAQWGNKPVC

Compound = CCN(CC)C(=O)[C@@H]1C=C2c3cccc4[nH]cc(c34)C[C@H]2N(C)C1; assay = measured: lack of energy; test system = healthy volunteers; conditions = dose not given, 12 to 24 h; scale = baseline: placebo, direction not given; endpoint = List of Complaints score; result = 3
Compound = Cc1cc(C(=O)NC(C)(C)COc2cccc3c2C(N)=NS(=O)(=O)N3)cc(C)n1; target or system = Salmonella typhimurium; assay = Ames test, confirmatory; test system = TA98; conditions = 333 µg/plate; scale = baseline: solvent control; endpoint = revertant ratio; result = 0.7
Compound = C[C@H]1CN(c2n[nH]c3nc(N[C@H]4CC[C@H](NS(=O)(=O)CCC(F)(F)F)CC4)ncc23)CCO1; target or system = Stomatin-like protein 2, mitochondrial (Homo sapiens, UniProt Q9UJZ1); assay = Kinobeads competition, measured: STOML2; conditions = 0.8 µM, unit not given; scale = baseline: vehicle; endpoint = remaining binding; result = 1.21
Compound = CC[C@H](C)[C@@H]1NC(=O)[C@@H]2CCCN2C(=O)[C@H](CC(C)C)NC(=O)[C@H](CC(C)C)NC(=O)CNC(=O)[C@@H](NC(=O)[C@@H](NC(=O)[C@H](CC(=O)O)NC(=O)CNC(=O)[C@@H](NC(=O)[C@H](C)NC(=O)CNC(=O)[C@H](CCCCN)NC(=O)[C@H](CC(C)C)NC(=O)[C@H](CC(C)C)NC(=O)[C@H](CCCCN)NC(=O)CNC(=O)[C@@H](NC(=O)[C@@H](N)CC(C)C)C(C)C)C(C)C)C(C)C)CSSC[C@@H](C(=O)O)NC1=O; assay = RNA-seq, measured: Gpr132; test system = mouse, traumatic brain injury model, frontal cortex and hippocampus; conditions = dose not given; scale = baseline: TBI alone; endpoint = log2 fold change; result = -2.87
Compound = COc1cccc(-c2n[nH]c(SCc3ccccn3)n2)c1OC; target or system = Salmonella typhimurium; assay = Ames test, preincubation; test system = TA100; conditions = 0.25 mg/plate, without S9; endpoint = revertant colonies per plate; result = 126
Compound = O=c1ccc2ccccc2o1; target or system = HepG2; assay = measured: steatosis; conditions = concentration not given, 24 h, phospholipidosis and steatosis panel; endpoint = probability of response; result = 37.9%
Compound = CN1CC[C@@H](c2c(O)cc(O)c3c(=O)cc(-c4ccc(C(F)(F)F)cc4Cl)oc23)[C@@H]1CO; assay = measured: Pyrexia; test system = B-cell malignancies; conditions = oral, 150 mg, intermittent dosing; endpoint = patients with adverse event; result = 0%
Compound = [Cl-].[Cl-].[Pt+2].[Ru+2].c1ccc(-c2nc3ccccc3nc2-c2ccccn2)nc1.c1cnc2c(c1)ccc1cccnc12.c1cnc2c(c1)ccc1cccnc12; target or system = Danio rerio; test system = embryos; conditions = 30 µM, 72 h; endpoint = survival rate; result = 83.3 ± 3.1%
Compound = CC(=O)N1CCC(C(=O)N2CCN3C(=O)c4cc(-c5ccccc5)ccc4NC(=O)C3C2)CC1 (stereo not shown); target or system = Salmonella typhimurium; test system = TA100; conditions = 5.0 µg/plate, without S9; endpoint = revertants per plate; result = 92.5
Compound = COc1cc2c(Oc3ccc4[nH]c(C)cc4c3F)ccnc2cc1OCC1(N)CC1; test system = paediatric recurrent refractory sarcoma; conditions = 10 mg; endpoint = grade 3 TBIL elevation; result = 0%
Compound = CO[C@H]1C[C@@H]2CC[C@@H](C)[C@@](O)(O2)C(=O)C(=O)N2CCCC[C@H]2C(=O)O[C@H]([C@H](C)C[C@@H]2CC[C@@H](OC(=O)NCCOCCOCCOCCOCCOCCOCCOCCOCCC(=O)N3CCc4cc(Cn5nc(-c6ccc7oc(N)nc7c6)c6c(N)ncnc65)ccc4C3)[C@H](OC)C2)C[C@@H](O)[C@H](C)/C=C(\C)[C@@H](O)[C@@H](OC)C(=O)[C@H](C)C[C@H](C)/C=C/C=C/C=C/1C; assay = phase 1 dose escalation; test system = advanced solid tumour patients; conditions = intravenous, 16 mg weekly, any grade; endpoint = AEs causing dose modification; result = 100%
Compound = CCCCCCCC(=O)N[C@@H](CCCNC(=N)N)C(=O)N[C@@H](CCCNC(=N)N)C(=O)N[C@@H](CCCNC(=N)N)C(=O)N[C@@H](CCCNC(=N)N)C(=O)N[C@H](C(=O)N[C@@H](CC(C)C)C(=O)N[C@H](C(=O)N[C@@H](CCCCN)C(=O)N[C@@H](CCCCN)C(=O)N[C@H](C(=O)N[C@@H](CC(C)C)C(=O)N[C@@H](CCCCN)C(=O)N[C@@H](CC(C)C)C(=O)N[C@@H](CCCCN)C(=O)N[C@@H](CO)C(=O)N[C@@H](CO)C(=O)N[C@@H](C)C(=O)N[C@@H](Cc1ccc(O)cc1)C(N)=O)C(C)C)[C@@H](C)CC)[C@@H](C)CC; target or system = human erythrocytes; conditions = 400 µM, 1 h; scale = baseline: Triton X-100; endpoint = hemolysis; result = 12%
Compound = C=C1C[C@@H]2[C@H](CC[C@]3(C)C(=O)CC[C@@H]23)[C@@]2(C)C=CC(=O)C=C12; target or system = Glutathione S-transferase Mu 3 (Homo sapiens, UniProt P21266); assay = glutathione conjugate formation, substrate; test system = recombinant enzyme 2.5 ng/µL; conditions = 250 µM, 1 h, 37 °C, active if over 3-fold mock control, together with: GSH 5 mM; endpoint = activity class; result = active
Compound = C[C@@H](O)[C@@H](CO)NC(=O)[C@@H](CCCNC(=N)N)NC(=O)[C@@H]1CCCN1C(=O)[C@@H]1CSSC[C@H](NC(=O)[C@H](Cc2ccccc2)NC(=O)CN2CCN(CC(=O)O)CCN(CC(=O)O)CCN(CC(=O)O)CC2)C(=O)N[C@@H](Cc2ccc(O)cc2)C(=O)N[C@@H](Cc2ccccc2)C(=O)N[C@@H](CCC(N)=O)C(=O)N[C@@H](CC(N)=O)C(=O)N1 [gallium-68 labelled]; test system = healthy Wistar rat, large intestine; conditions = intravenous, 8 MBq, 60 min; endpoint = tissue uptake; result = 0.12 %ID/g
Compound = COc1cc(Nc2ncc(F)c(Nc3ccc4c(n3)NC(=O)C(C)(C)O4)n2)cc(OC)c1OC; target or system = phosphodiesterase 1; assay = enzyme activity, inhibitor; endpoint = IC50; result = > 10 µM
Compound = CC[C@H](C)[C@H](NC(=O)[C@H](Cc1ccccc1)NC(=O)[C@H](CCC(=O)O)NC(=O)[C@H](CCCNC(=N)N)NC(=O)[C@H](C)NC(=O)[C@H](C)NC(=O)[C@H](CCC(N)=O)NC(=O)[C@H](CCC(=O)O)NC(=O)[C@H](CCC(=O)O)NC(=O)[C@H](CC(C)C)NC(=O)[C@H](Cc1ccc(O)cc1)NC(=O)[C@H](CO)NC(=O)[C@H](CO)NC(=O)[C@@H](NC(=O)[C@H](CC(=O)O)NC(=O)[C@H](CO)NC(=O)[C@@H](NC(=O)[C@H](Cc1ccccc1)NC(=O)[C@@H](NC(=O)CNC(=O)[C@H](CCC(=O)O)NC(=O)[C@H](C)NC(=O)CCc1c[nH]cn1)[C@@H](C)O)[C@@H](C)O)C(C)C)C(=O)N[C@@H](C)C(=O)N[C@@H](Cc1c[nH]c2ccccc12)C(=O)N[C@@H](CC(C)C)C(=O)N[C@H](C(=O)N[C@@H](CCCNC(=N)N)C(=O)NCC(=O)N[C@@H](CCCNC(=N)N)C(=O)N[C@@H](CCCCNC(=O)COCCOCCNC(=O)COCCOCCNC(=O)CC[C@H](NC(=O)CCCCCCCCCCCCCCCCC(=O)O)C(=O)O)C(=O)NCC(=O)NCC(=O)N[C@@H](CO)C(=O)N[C@@H](CCCCNc1c(NCCCCCN(O)C(=O)CCC(=O)NCCCCCN(O)C(=O)CCC(=O)NCCCCCN(O)C(C)=O)c(=O)c1=O)C(=O)O)C(C)C [zirconium-89 labelled]; assay = ex vivo gamma counting; test system = rat, muscle; conditions = subcutaneous, 3 nmol/kg, 72 h, together with: [89Zr]-labelled peptide; endpoint = tissue uptake; result = 0.08 %ID/g

Some of these lines once more:
Compound = CC[C@H](C)[C@@H]1NC(=O)[C@@H]2CCCN2C(=O)[C@H](CC(C)C)NC(=O)[C@H](CC(C)C)NC(=O)CNC(=O)[C@@H](NC(=O)[C@@H](NC(=O)[C@H](CC(=O)O)NC(=O)CNC(=O)[C@@H](NC(=O)[C@H](C)NC(=O)CNC(=O)[C@H](CCCCN)NC(=O)[C@H](CC(C)C)NC(=O)[C@H](CC(C)C)NC(=O)[C@H](CCCCN)NC(=O)CNC(=O)[C@@H](NC(=O)[C@@H](N)CC(C)C)C(C)C)C(C)C)C(C)C)CSSC[C@@H](C(=O)O)NC1=O; assay = RNA-seq, measured: Gpr132; test system = mouse, traumatic brain injury model, frontal cortex and hippocampus; conditions = dose not given; scale = baseline: TBI alone; endpoint = log2 fold change; result = -2.87
